Assay results of several laboratories.
A part holds a random share of what one study measured. Substitutions count along the parent as printed.

Sample 1 — target: CCNB2, cyclin fold, Cln2 fusion (human); technique: yeast growth competition, sequencing; matrix: yeast; setting: weak parent motif; relative to: not given; reading: higher = stronger binding
Starting sequence: SLBP docking peptide (human); ARYKRKLLINDFG
| Substitution | normalised enrichment score |
| --- | --- |
| D11A | 0.597 |
| D11Q | 0.204 |
| N10T | 0.718 |
| F12H | 0.586 |
| F12G | 0.554 |
| Y3F | 0.874 |
| A1K | -0.176 |

Sample 2 — technique: Sort-seq; measured: YFP reporter; matrix: E. coli; setting: PhoQ-PhoP variant library; together with: 10 µM Mg2+; relative to: high Mg2+ state; reading: higher = stronger signaling
Molecule: PhoQ, residues 284 288 289 292 302 303 AGHLVA
| target | fold induction |
| --- | --- |
| PhoP, residues 12 14 15 18 19 SHWTV (Escherichia coli, UniProt P23836) | 0.978 |
| PhoP, residues 12 14 15 18 19 STHWV (Escherichia coli, UniProt P23836) | 1.02 |
| PhoP, residues 12 14 15 18 19 QYCSL (Escherichia coli, UniProt P23836) | 6.32 |

Sample 3 — target: JUND, bZIP domain (human); technique: DHFR protein complementation; matrix: yeast; relative to: wild-type JUN-FOS pair; reading: higher = stronger binding
Setting: single substitutions, most at no-binding floor
Starting sequence: JUN, bZIP domain (human); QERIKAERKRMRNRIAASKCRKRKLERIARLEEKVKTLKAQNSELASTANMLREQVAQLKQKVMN; partner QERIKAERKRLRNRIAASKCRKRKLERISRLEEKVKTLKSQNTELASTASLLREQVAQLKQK
| Substitution | binding fitness |
| --- | --- |
| N42H | -0.937 natural log |
| E33H | -0.936 natural log |
| R53S | -1.13 natural log |
| S43M | -0.62 natural log |
| Q55V | -1.11 natural log |
| K34W | -0.71 natural log |

Sample 4 — technique: DHFR PCA, deep sequencing; matrix: yeast; together with: (+)-ABA 58 µM; relative to: wild-type fitted maximum; reading: higher = stronger binding
Target: ABI1, truncated, D143A, DHFR fusion (Arabidopsis thaliana)
Setting: methotrexate growth selection, single substitutions
Starting sequence: PYL1, truncated, DHFR fusion (Arabidopsis thaliana); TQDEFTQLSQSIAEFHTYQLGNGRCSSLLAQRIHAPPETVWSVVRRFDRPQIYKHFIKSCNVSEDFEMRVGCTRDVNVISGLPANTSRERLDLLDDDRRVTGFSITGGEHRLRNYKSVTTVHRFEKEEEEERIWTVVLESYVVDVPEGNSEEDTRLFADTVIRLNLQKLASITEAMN; partner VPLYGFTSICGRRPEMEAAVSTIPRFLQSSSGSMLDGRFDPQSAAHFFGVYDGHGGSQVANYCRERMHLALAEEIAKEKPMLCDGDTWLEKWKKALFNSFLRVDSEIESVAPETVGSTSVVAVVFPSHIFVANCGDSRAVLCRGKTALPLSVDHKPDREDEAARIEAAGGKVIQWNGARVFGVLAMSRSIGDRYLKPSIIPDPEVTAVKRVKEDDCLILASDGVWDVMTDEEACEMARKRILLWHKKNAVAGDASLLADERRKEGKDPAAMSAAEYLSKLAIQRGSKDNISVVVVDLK
| Substitution | relative binding score [%] |
| --- | --- |
| S11R | 71.3 |
| F103L | 10.2 |
| R113W | 58.1 |
| R74G | 0.653 |
| H55N | 79.6 |
| A30S | 96.7 |
| Q2H | 89.4 |
| P50L | -5.93 |

A few entries again (sample 2):
| target | fold induction |
| --- | --- |
| PhoP, residues 12 14 15 18 19 SHWTV (Escherichia coli, UniProt P23836) | 0.978 |
| PhoP, residues 12 14 15 18 19 STHWV (Escherichia coli, UniProt P23836) | 1.02 |
| PhoP, residues 12 14 15 18 19 QYCSL (Escherichia coli, UniProt P23836) | 6.32 |
